# Measurements from different studies.
# Compare with care: the assays were run in different laboratories.
# CDK5 with p35: Cyclin-dependent kinase 5, with p35 (CDK5, Homo sapiens, UniProt Q00535)
# CDK5 with p25: Cyclin-dependent kinase 5, with p25 (CDK5, Homo sapiens, UniProt Q00535)
Compound,target,observed,mode,concentration,with,inhibition
NC(=O)C[C@H]1CCc2sc3ncnc(O[C@H]4CC[C@H](N5CCOCC5)CC4)c3c21,CDK5 with p35,enzyme activity,inhibitor,10 µM,,32%
Cc1cccc(O[C@H]2CCC[C@@H](C(C)CNCc3ccncc3)C2)c1 (relative stereo),"CDK5 (Homo sapiens, UniProt Q00535)",enzyme activity,inhibitor,10 µM,,-8%
NC(=O)[C@@H](O)C[C@H]1CCc2sc3ncnc(O[C@H]4CC[C@H](N5CCOCC5)CC4)c3c21,CDK5 with p25,enzyme activity,inhibitor,10 µM,,17%
CN1CC[C@@H](COc2cnc(C#N)cc2-c2ccn3nc(NC(=O)C4CC4)cc3c2)C1,CDK5 with p25,enzyme activity,inhibitor,1 µM,,-6%
COc1ccc(C(=O)/C=C/c2ccccc2-c2c[nH]c3ccc(C#N)cc23)c(O)c1,CDK5 with p25,enzyme activity,inhibitor,20 µM,,7%
C=CC(=O)N1Cc2nc(-c3cc(-c4cc(Cl)cnc4Cl)c(F)cc3F)n(-c3ccncn3)c2C1,CDK5 with p35,cell-free assay,inhibitor,1 µM,,-0.7%
CCn1cc(C(=O)O)c(=O)c2c(N)c(F)c(NC3CCCCC3)cc21,CDK5 with p35,kinase activity,,0.1 µM,ATP at Km,29.2%
CN1CCN(Cc2ccc(-c3ccc(CO[C@H]4CCC[C@@H]4NC(=O)c4cc(-c5cnn(C)c5)cnc4N)cc3)cc2)CC1,CDK5 with p35,enzyme activity,inhibitor,0.1 µM,,2%
C=CC(=O)Nc1cccc(-c2cnc3[nH]cc(C(=O)NC(C)(C)C)c3n2)c1,CDK5 with p25,kinase activity,,0.1 µM,,16%

# Repeated from above:
Compound,target,observed,mode,concentration,with,inhibition
CN1CC[C@@H](COc2cnc(C#N)cc2-c2ccn3nc(NC(=O)C4CC4)cc3c2)C1,CDK5 with p25,enzyme activity,inhibitor,1 µM,,-6%
